Measured values pooled from the literature.
Lines come from different studies, so protocols differ. “And” joins repeats or separate records; there may be more than shown. ± gives the spread as reported.
rep main protease: Replicase polyprotein 1ab, main protease (rep, Severe acute respiratory syndrome coronavirus 2, UniProt P0DTD1)
Matrix protein 2 S31N: Matrix protein 2 (Influenza A virus, UniProt P0DOF5, S31N)

SMILES	target or system	assay	test system	setting	scale	measurement	result
Ic1ccc(CNC23CC4CC(CC(C4)C2)C3)s1	Influenza A virus	–	A/WSN/33 M2-S31N	–	–	EC50	1900 nM
O=C(CCCCCCCCCCc1ccc(O)c(O)c1)c1c(O)cccc1O	SARS-CoV-2	–	HEK293T ACE2, Gamma P.1	–	reference: CC50 over EC50	selectivity index	1.4
COc1ccc2nccc(CC[C@H]3OC[C@H](NC(=O)c4ccc5c(c4)NC(=O)CO5)CO3)c2c1	Mycobacterium tuberculosis	–	H37Rv katG deletion	–	–	MIC	0.125 µg/mL
CC(=O)Oc1ccc(CCCCCCCCC(=O)c2c(OC(C)=O)cccc2OC(C)=O)cc1OC(C)=O	SARS-CoV-2	viral replication, MTT	HEK293T ACE2, Gamma P.1	–	–	EC50	1500 nM
CC(C)C[C@@H]1NC(=O)[C@H](C(C)C)NC(=O)[C@H](C)NC(=O)[C@H](Cc2ccc(O)cc2)NC(=O)[C@H](CCC(N)=O)NC(=O)[C@H](CC(C)C)NC(=O)[C@@H](Cc2ccc(O)cc2)NC(=O)CSC[C@@H](C(N)=O)NC(=O)[C@H](CCC(=O)O)NC(=O)[C@H](CCCNC(=N)N)NC(=O)[C@H](CCCNC(=N)N)NC(=O)[C@H](CCCCN)NC(=O)[C@H](Cc2c[nH]cn2)NC(=O)[C@H](CCCNC(=N)N)NC1=O	rep main protease	enzyme activity, inhibitor	–	–	–	Ki	14 nM
N#Cc1ccc(Oc2ccc(Cl)cc2Cl)c(O)c1	Mycobacterium tuberculosis	–	V2475	–	–	MIC	50 µg/mL
CCCC/C=C/C(=O)N[C@@H](Cc1csc2ccccc12)C(=O)N[C@H]1COC(=O)[C@@H]2C[C@@H](C)CN2C(=O)[C@H](C)NC(=O)[C@@H]2CCCCN2C(=O)[C@@H]2CCCN2C1=O	SARS-CoV-2 Omicron	–	Huh-7	concentration not given, 3 h, unit not given	reference: DMSO	viral RNA level	0.297 and 0.284
COc1ccc2ncc(F)c(C[C@H](O)[C@H]3OC[C@H](NCc4ccc(Cl)c(Cl)c4)CO3)c2c1	Mycobacterium tuberculosis	–	H37Rv katG deletion	–	–	MIC	0.125 µg/mL
CC(CCC(=O)[O-])C1CCC2C3CCC4CC(O)CCC4(C)C3CCC12C.C[N+](C)(C)CC(O)CC(=O)O (stereo not drawn)	SARS-CoV-2 Delta variant	virucidal activity	A549-hACE2, B.1.617.2	72 h post infection, virus pretreated 1 h, 37 °C	–	EC50	21.9 ± 5.24 µg/mL
COc1ccc(CNC23CC4C5CC6CC4C(C2)C(C6)C5C3)c(O)c1	Matrix protein 2 S31N	binding	–	–	–	Kd	> 100000 nM
COc1ccc(CNC23CC4CC(CC(C4)C2)C3)s1	Influenza A virus	–	A/WSN/33 M2-S31N	–	–	EC50	3900 nM
CC[C@H](C)[C@@H]1NC(=O)[C@H](Cc2c[nH]c3ccccc23)NC(=O)[C@H](C)NC(=O)[C@H](CC(N)=O)NC(=O)[C@H](Cc2ccc(O)cc2)NC(=O)CNC(=O)[C@H](Cc2ccc(O)cc2)NC(=O)[C@H](C(C)C)NC(=O)[C@H](C(C)C)NC(=O)CNC(=O)[C@H](C)NC(=O)[C@H](CCCCN)NC(=O)[C@@H](Cc2ccc(O)cc2)NC(=O)CSC[C@@H](C(N)=O)NC(=O)[C@H](CCCNC(=N)N)NC1=O	SARS-CoV-2 spike pseudotyped lentivirus	pseudovirus neutralization	HEK293T overexpressing ACE2	–	–	inhibition	> 50 µM
CC1(C)CC(=O)c2c(C(F)(F)F)nn(-c3ccc(C(N)=O)c(N[C@H]4CC[C@H](OC(=O)CN)CC4)c3)c2C1	Severe acute respiratory syndrome coronavirus 2	viral replication	–	10 µM	–	inhibition	82%
COc1ccc2nccc(CC[C@H]3OC[C@H](NC(=O)c4ccc(C)cc4)CO3)c2c1	Mycobacterium tuberculosis	–	H37Rv katG deletion	–	–	MIC	> 32 µg/mL
CC1OC(OC2C(OC(=O)C34CCC(C)(C)CC3C3=CCC5C6(C)CCC(OC7OC(CO)C(O)C(O)C7O)C(C)(C)C6CCC5(C)C3(C)CC4O)OCC(O)C2O)C(O)C(O)C1OC1OCC(O)C(OC2OCC(O)C(OC3OCC(O)C(O)C3O)C2O)C1O (stereo not drawn)	SARS-CoV-2	viral infection	Vero cells, delta B.1.617.2	–	–	IC50	1670 nM
O=c1cc(-c2ccc(O)cc2)oc2c([C@@H]3OC[C@H](O)[C@H](O)[C@H]3O)c(O)c([C@@H]3O[C@H](CO)[C@@H](O)[C@H](O)[C@H]3O)c(O)c12	Replicase polyprotein 1ab, papain-like protease K157A (rep, Severe acute respiratory syndrome coronavirus 2, UniProt P0DTD1, K1720A)	enzyme activity, inhibitor	–	concentration not given, PLpro K157A mutant	–	inhibition	52.3%
N=C(N)NCCC[C@H](NC(=O)[C@@H]1CCCN1C(=O)[C@H](N)Cc1ccccc1)C(=O)CCl	Severe acute respiratory syndrome coronavirus 2	viral entry, inhibitor	A549-hACE2-TMPRSS2	pseudovirus	–	EC50	> 50000 nM
COc1ccc2nccc(CC[C@H]3OC[C@H](NC(=O)c4ccc5c(c4)OCCO5)CO3)c2c1	Mycobacterium tuberculosis	–	H37Rv katG deletion	–	–	MIC	> 32 µg/mL

SMILES	target or system	assay	test system	setting	scale	measurement	result
O=C(NC1CCN(c2ncnc3[nH]cnc23)CC1)c1cccc(NS(=O)(=O)c2ccc(C(F)(F)F)cc2)c1	Replicase polyprotein 1ab, NSP14 (rep, Severe acute respiratory syndrome coronavirus 2, UniProt P0DTD1, P6318L)	thermal stabilisation	–	–	–	ΔTm	5.9 °C
COc1ccc2nccc(CC[C@H]3OC[C@H](NCc4ccc5c(c4)OCCO5)CO3)c2c1	Mycobacterium tuberculosis	–	H37Rv katG deletion	–	–	MIC	16 µg/mL
Oc1ccc(CCCCCCCCC(O)c2c(O)cccc2O)cc1O (stereo not drawn)	SARS-CoV-2	–	HEK293T ACE2, Delta B.1.617.2	–	reference: CC50 over EC50	selectivity index	2.7
CCCCCCNCc1ccc(Oc2ccc(Cl)cc2O)c(Cl)c1	Mycobacterium tuberculosis	–	V2475	–	–	MIC	5 µg/mL
COc1ccc2nccc(CC[C@H]3OC[C@H](NC(=O)c4ccc(Cl)cc4)CO3)c2c1	Mycobacterium tuberculosis	–	H37Rv katG deletion	–	–	MIC	2 µg/mL
CC(C)C(=O)OC[C@H]1O[C@@](C#N)(n2ccc(N)nc2=O)[C@H](O)[C@@H]1O	SARS-CoV-2 Omicron	viral replication	Calu-3	–	–	EC90	10400 ± 2600 nM
O=C(CCCCCCc1ccc(O)c(O)c1)c1c(O)cccc1O	SARS-CoV-2	–	HEK293T ACE2, Delta B.1.617.2	–	reference: CC50 over EC50	selectivity index	2.3
O=P(O)(O)C(O)(Cc1cccc(-c2cccc3c2oc2ccccc23)c1)P(=O)(O)O	Tuberculosinyl adenosine transferase (Mycobacterium tuberculosis, UniProt P9WJ61)	–	–	–	–	Kd	~560 nM
O=c1[nH]cnc2c(C3NC(COP(=O)(O)OP(=O)(O)OP(=O)(O)O)C(O)C3O)c[nH]c12 (stereo not drawn)	Severe acute respiratory syndrome coronavirus 2	viral replication, inhibitor	Vero C1008	48 h	–	EC90	1460 nM
COc1ccc(CNc2ccc(C34CC5CC(CC(C5)C3)C4)cc2)c(O)c1	Matrix protein 2 S31N	binding	–	–	–	Kd	> 100000 nM
Oc1cc(CNc2ccccc2)ccc1Oc1ccc(Cl)cc1Cl	Mycobacterium tuberculosis	–	V2475	–	–	MIC	40 µg/mL
CC(C)(C)[C@H](NC(=O)NC1(CS(=O)(=O)C(C)(C)C)CCCCC1)C(=O)N1C[C@H]2[C@@H]([C@H]1C(=O)N[C@H](C#N)C[C@@H]1CCNC1=O)C2(C)C	Replicase polyprotein 1ab, main protease H41A (rep, Severe acute respiratory syndrome coronavirus 2, UniProt P0DTD1, H3304A)	–	–	pH 7.2	–	ΔH	-1.47 ± 0.01 kcal/mol
NC(=S)N/N=C/c1ccc(OC(=O)CC2SC(=O)NC2=O)cc1 (stereo not drawn)	Mycobacterium tuberculosis	Alamar blue	MDR 210	–	–	MIC	31.6 to 45.7 µM
COc1ccc2nccc(CC[C@H]3OC[C@H](NC(=O)c4ccc(C(C)(C)C)cc4)CO3)c2c1	Mycobacterium tuberculosis	–	H37Rv katG deletion	–	–	MIC	8 µg/mL
Cc1ccc(N2CCN(C)CC2)cc1C(=O)NC1(c2ccc3c4c(cccc24)CC3)CC1	Replicase polyprotein 1a, papain-like protease (Severe acute respiratory syndrome coronavirus 2, UniProt P0DTC1)	binding	–	–	–	Kd	282 nM and 114 nM
CC(C)CC(C(=O)N1CC2(CC1C#N)C(=O)Nc1ccccc12)N(C)C(=O)c1cc2c(F)cc(F)c(F)c2[nH]1 (stereo not drawn)	SARS-CoV-2	viral replication, infectious virus	Vero E6-TMPRSS2, Omicron variant	0.9 µM	–	inhibition	99.9% and 100%
COc1ccc2ncc(F)c(C(O)C[C@H]3OC[C@H](NCc4ccc5c(c4)OCCO5)CO3)c2c1 (stereo partly drawn)	Mycobacterium tuberculosis	–	H37Rv katG deletion	–	–	MIC	4 µg/mL
CC[C@H](C)[C@H](NC(=O)[C@H](CCCCN)NC(=O)[C@@H](NC(=O)[C@H](CCC(N)=O)NC(=O)[C@H](CCCNC(=N)N)NC(=O)[C@@H]1CSCC(=O)N[C@H](Cc2ccc(O)cc2)C(=O)N[C@@H](CC(C)C)C(=O)N[C@@H](CCC(N)=O)C(=O)N[C@@H](Cc2ccc(O)cc2)C(=O)N[C@@H](C)C(=O)N[C@@H](C(C)C)C(=O)N[C@@H](CC(C)C)C(=O)N[C@@H](CCCNC(=N)N)C(=O)N[C@@H](Cc2c[nH]cn2)C(=O)N[C@@H](CCCCN)C(=O)N[C@@H](CCCNC(=N)N)C(=O)N[C@@H](CCCNC(=N)N)C(=O)N[C@@H](CCC(=O)O)C(=O)N1)[C@@H](C)CC)C(=O)N[C@@H](Cc1c[nH]c2ccccc12)C(=O)N[C@@H](Cc1ccccc1)C(=O)N[C@@H](CCC(N)=O)C(=O)N[C@@H](CC(N)=O)C(=O)N[C@@H](CCCNC(=N)N)C(=O)N[C@@H](CCCNC(=N)N)C(=O)N[C@@H](CCSC)C(=O)N[C@@H](CCCCN)C(=O)N[C@@H](Cc1c[nH]c2ccccc12)C(=O)N[C@@H](CCCCN)C(=O)N[C@@H](CCCCN)C(N)=O	rep main protease	enzyme activity, inhibitor	–	–	–	Ki	9 nM

Repeated from above:
SMILES	target or system	assay	test system	setting	scale	measurement	result
Ic1ccc(CNC23CC4CC(CC(C4)C2)C3)s1	Influenza A virus	–	A/WSN/33 M2-S31N	–	–	EC50	1900 nM
O=C(CCCCCCCCCCc1ccc(O)c(O)c1)c1c(O)cccc1O	SARS-CoV-2	–	HEK293T ACE2, Gamma P.1	–	reference: CC50 over EC50	selectivity index	1.4
COc1ccc2nccc(CC[C@H]3OC[C@H](NC(=O)c4ccc5c(c4)NC(=O)CO5)CO3)c2c1	Mycobacterium tuberculosis	–	H37Rv katG deletion	–	–	MIC	0.125 µg/mL
